Published values gathered from unrelated publications.
Each line is one published result; not all experiments were run side by side. ± marks the error that the study gave.
Target: Kappa-type opioid receptor (OPRK1, Homo sapiens, UniProt P41145)
Sequence of UniProt P41145 (whole entry, looked up): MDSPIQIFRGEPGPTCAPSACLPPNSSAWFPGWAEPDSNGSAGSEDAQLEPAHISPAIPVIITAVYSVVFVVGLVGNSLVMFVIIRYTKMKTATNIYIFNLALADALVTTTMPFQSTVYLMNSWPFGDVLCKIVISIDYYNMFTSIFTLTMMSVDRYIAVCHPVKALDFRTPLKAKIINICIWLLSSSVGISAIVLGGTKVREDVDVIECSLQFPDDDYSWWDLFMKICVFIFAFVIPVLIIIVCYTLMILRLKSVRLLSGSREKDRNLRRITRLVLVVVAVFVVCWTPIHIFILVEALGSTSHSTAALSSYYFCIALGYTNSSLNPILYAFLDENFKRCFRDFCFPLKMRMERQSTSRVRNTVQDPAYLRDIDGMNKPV

SMILES | test | test system | setting | scale | endpoint | value
C[C@H](NCc1ccc(-c2ccc(C(F)(F)F)cc2)cc1)C(N)=O | radioligand binding, SafetyScreen panel | – | 1 µM, species human, together with: 0.60 nM [3H]Diprenorphine | – | inhibition | -1%
COc1ccc(F)cc1S(=O)(=O)Nc1cnc2c(c1)C(=O)NCCO2 | ligand displacement, radioligand | – | 10 µM | – | inhibition | -9%
CC(C)C(=O)N1CCN(C(=O)Cc2ccc(Cl)c(Cl)c2)[C@H]2[C@H]1COC[C@@H]2N1CCCC1 (single isomer, unassigned) | agonist | – | 0.3333 h | – | Emax | 122%
CN(C)[C@H](CNC(=O)/C=C/c1cccc2ccccc12)Cc1ccc(O)cc1 | – | – | – | relative to: kappa over mu receptor | selectivity ratio | 11
C/C(=N\OCCCN1CCCCC1)c1ccc(C(F)(F)F)cc1 | agonist, cAMP | – | 10 µM | – | activation | 2.93%
Cc1cc(Nc2nc(C[C@@]3(C(=O)O)CCN(Cc4cccc(Cl)c4F)[C@H](C)C3)cc(C)c2F)[nH]n1 | agonist | – | 10 µM | – | activation | 0.23%
O=C(Cc1ccc(Cl)c(Cl)c1)N1CCNC2COCC(N3CCCC3)C21 (centres unmarked) | β-arrestin-2 recruitment, agonist | U2OS | 1.5 h | relative to: U-69593 maximal response | Emax | 67 ± 24.4%
CN1CC[C@@]23c4c5ccc(O)c4C[C@@H]2[C@H](O)C=C[C@@H]3[C@@H]1C5 | receptor activation, agonist, cell-based | – | – | – | Emax | 79 ± 12%
CN[C@@H]1[C@H](O)[C@H](NC)[C@H]2O[C@]3(O)[C@H](O[C@@H]2[C@H]1O)O[C@H](C)C[C@H]3NC(=O)Cc1cc(Cl)ccn1 | ligand displacement, radioligand | – | 10 µM | – | inhibition | 5%
O=C(Cc1ccc(Cl)c(Cl)c1)N1CCN(C(=O)C2(O)CCCC2)[C@@H]2COC[C@H](N3CCCC3)[C@H]21 (single isomer, unassigned) | agonist | – | 0.3333 h | – | Emax | 93%
Cc1cc(-c2ccc3ccccc3c2)nnc1NCCN1CCN(C)CC1 | antagonist | – | concentration not given | – | antagonist activity | negative

Repeated from above:
SMILES | test | test system | setting | scale | endpoint | value
CN1CC[C@@]23c4c5ccc(O)c4C[C@@H]2[C@H](O)C=C[C@@H]3[C@@H]1C5 | receptor activation, agonist, cell-based | – | – | – | Emax | 79 ± 12%
